Measurements collected from several papers.
Each numbered part is a random draw from the data of one study; scales do not carry over between parts. Substitutions count along the parent as printed.

Sample 1
Target: RNA binding protein fox-1 homolog 2, RRM domain, GST-SBP tag (RBFOX2, Homo sapiens, UniProt O43251-10, residues 100-194)
Technique: RNA Bind-n-Seq
Molecule type: RNA
Sample: in vitro
Tested at: 365 nM
Notes: natural RNA segment, single round, ends assumed
Baseline: no-protein control
Direction: higher = stronger binding
Residues (chain): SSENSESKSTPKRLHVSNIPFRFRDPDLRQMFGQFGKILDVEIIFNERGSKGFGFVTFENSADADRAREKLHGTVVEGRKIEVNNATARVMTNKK
Sequence	RBNS enrichment (R)
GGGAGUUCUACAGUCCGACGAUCUAGUGCCGUUGGUUUCACAUGAUUGCACUUUUGUGGGUCACAAGUGAUACAUACGUGUAUUACUCGAUCACUGGAUGUGGAAGUACCCAUUCAUCACAUCUGCCUCAUAGUGGAAUUCUCGGGUGCCAA	0.287
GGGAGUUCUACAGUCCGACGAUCAGAAAGUACAGCUACUGUGCCUUGUGUUACUUAUUUACACAGUUAGCAGGCCUGGAAAUGAAUGGAACUAGUACUCCUGAGAAAUAAAUUGUAUAUCCCCCAAAUUAAAAUGGAAUUCUCGGGUGCCAA	0.847
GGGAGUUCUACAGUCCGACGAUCCUAUCAGAAUUGCAGAUAGUCAUGUUGGGCUAACAGUCAAUUGGAUAUAUUCCUUUACCUCACAUGACCCCAGCAACUGUGGUGGUAUCUAGAGGUGAAACAGGCAAGUGUGGAAUUCUCGGGUGCCAA	0.713
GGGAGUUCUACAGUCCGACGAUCGGAAAAAAUCCAAUUCAUUUGACCUAAAAACAAGCCUCAAGUUUAAAACCAAGCUCACGUUUUUCUUAAGGGAAAAAUUUUCUUUCUUAAACUUACAUCUAGCAACUUGGUGGAAUUCUCGGGUGCCAA	0.363
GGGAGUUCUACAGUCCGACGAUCCGGAGGGCACAGUAGGAGCUGCUGGGAAGCGCCUUCCGUUCUGAUCCCUCACAUCCUGUCACGGCAGGGGCUGUGCAGGGUACUGCCCUCCCUCUGCCCAGCAGCCCCAUUGGAAUUCUCGGGUGCCAA	0.217
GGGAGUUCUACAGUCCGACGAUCAUGAAGAAGUAGAAAGUGAGUCAUGCACUAGACAGUGGGCCUAGCUCAUCAGUGGCUAAAGUUGAAAAGGGGUUGGUUUCCUGUAUAUAUAUGUAUGUAUAUACACACGUUGGAAUUCUCGGGUGCCAA	0.885
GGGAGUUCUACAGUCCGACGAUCUGUAACUCAUUUGAAUAGGUUUUGCAUUUGUUAUUCAGCAGUGUAUAAAGCUAACCUUGAUAAUUUUACUUUUAAUUAAUUAUCUAAAUGAAAAAUGCUAUUAGCUGAACUGGAAUUCUCGGGUGCCAA	0.654
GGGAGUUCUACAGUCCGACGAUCUGUGUGAUAACUGCCAAAACCGUAUUUUCUAAGACUAAGCAAAAUAAAUGCAUUACUCUUUGGUAAAGCCUAGUUGUACUCUCACAUUUCUAAACAAGGCUCCUAACUAGUGGAAUUCUCGGGUGCCAA	0.578
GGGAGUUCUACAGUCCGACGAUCUACUCAAGUGACAGCUUCAGCAUUUCUUGGUAGCACCUACAGCAUUCUGAUUACAUGCAGGUUCCUGGAAGGAGUGUGUCAAUCAUUUAGCUGCAUGUCAUCGGCUCAGCUGGAAUUCUCGGGUGCCAA	1.24
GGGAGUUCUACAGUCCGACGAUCGUUUAUAUGACUUUAAUAUCCACAGUGGUAAUCUAAUACCUUACCUCACAGGUUUUCAUUCUUUUGAACUCUGGUGCACUCCAUCUGUAAUCCAUGUCUAUAAUCUACCAUGGAAUUCUCGGGUGCCAA	0.333

Sample 2
Target: CCNB1, cyclin fold, Cln2 fusion (human)
Technique: yeast growth competition, sequencing
Sample: yeast
Notes: weak parent motif
Baseline: not given
Direction: higher = stronger binding
Starting sequence: CDC6 docking peptide (human); TLKGRRLVFDNQL
Change	normalised enrichment score
TLKGRRLVHDNQL [F9H]	0.195
TLKGRRLVPDNQL [F9P]	1.14
TLKGRRLVFDKQL [N11K]	-0.372
TLKGRRLVFLNQL [D10L]	-0.118

Sample 3
Target: ABI1, truncated, D143A, DHFR fusion (Arabidopsis thaliana)
Technique: DHFR PCA, deep sequencing
Sample: yeast
Notes: methotrexate growth selection, single substitutions
Together with: (+)-ABA 0.032 µM
Baseline: wild-type fitted maximum
Direction: higher = stronger binding
Starting sequence: PYL1, truncated, DHFR fusion (Arabidopsis thaliana); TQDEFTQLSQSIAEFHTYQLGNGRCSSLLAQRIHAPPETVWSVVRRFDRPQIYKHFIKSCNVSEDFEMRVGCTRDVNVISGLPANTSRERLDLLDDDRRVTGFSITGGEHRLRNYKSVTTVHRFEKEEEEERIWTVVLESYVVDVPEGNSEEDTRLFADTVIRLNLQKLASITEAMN
Change	relative binding score
K168Q	5.52%
E109V	5.41%
T39R	17.9%
V136T	6.09%
V43Q	-4%
D92N	2.67%
V143D	1.81%

Further values, each from its own experiment
Substance	target	test	system	conditions	scale	quantity	value
PhoQ, residues 284 288 289 292 302 303 SNSSNI	PhoP, residues 12 14 15 18 19 LHHSG (Escherichia coli, UniProt P23836)	Sort-seq, refers to: YFP reporter	E. coli	PhoQ-PhoP variant library, together with: 10 µM Mg2+	baseline: high Mg2+ state, higher = stronger signaling	fold induction	10.8
